Experimental data pooled from the literature.
Each line is one published result; not all experiments were run side by side. ± marks the error that the study gave.
Sequence of UniProt P02769 (whole entry, looked up): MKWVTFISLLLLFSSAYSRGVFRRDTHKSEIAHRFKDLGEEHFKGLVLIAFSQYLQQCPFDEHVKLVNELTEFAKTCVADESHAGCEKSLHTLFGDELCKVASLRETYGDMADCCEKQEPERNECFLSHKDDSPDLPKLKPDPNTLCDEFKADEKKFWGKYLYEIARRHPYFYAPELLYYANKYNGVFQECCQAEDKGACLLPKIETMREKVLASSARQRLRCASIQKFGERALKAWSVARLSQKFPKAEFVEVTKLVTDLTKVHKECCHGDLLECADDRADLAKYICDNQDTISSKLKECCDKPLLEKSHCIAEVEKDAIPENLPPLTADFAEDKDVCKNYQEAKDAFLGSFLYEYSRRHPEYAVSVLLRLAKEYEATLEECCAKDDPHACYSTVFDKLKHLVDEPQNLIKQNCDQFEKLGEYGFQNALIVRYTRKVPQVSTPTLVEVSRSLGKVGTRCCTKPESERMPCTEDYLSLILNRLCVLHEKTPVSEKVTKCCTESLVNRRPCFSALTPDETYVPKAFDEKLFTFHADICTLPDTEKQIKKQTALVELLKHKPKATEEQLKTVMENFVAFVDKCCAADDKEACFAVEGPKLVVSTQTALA

N#Cc1ccc(-c2ccc(-c3ccco3)o2)cc1 has a viability of 108 ± 7.6% (Salmonella typhimurium; liquid broth OD; TA1535; 50 µM, 15 h; reference: growth).
[99Tc+].[C-]#[N+]CC(C)(C)OC.[C-]#[N+]CC(C)(C)OC.[C-]#[N+]CC(C)(C)OC.[C-]#[N+]CC(C)(C)OC.[C-]#[N+]CC(C)(C)OC.[C-]#[N+]CC(C)(C)OC — result for “basolateral efflux fraction”: 71.7% (human sandwich-cultured hepatocytes; reference: total efflux).
With COc1cc2nc(NC3CCN(Cc4ccc(S(C)(=O)=O)cc4)CC3)nc(Oc3c(C)cc(C#N)cc3C)c2cc1OC the selectivity index was 1150 (HIV-1; TZM-bl, NL4-3 wild type; reference: CC50 over EC50).
O=C(O)[C@@H]1C[C@@H](O)CN1C(=O)[C@@H]1CCCN1 has a ΔH of 123 kcal/mol (iron(III) ion; complex formation, Van't Hoff plot; aqueous 0.15 M NaCl; MAH−2 complex species).
N=C(N)c1ccc(-c2ccc(-c3cccs3)o2)cc1 has a viability of 108 ± 7.4% (Salmonella typhimurium; liquid broth OD; TA1535; 25 µM, 15 h; reference: growth).
For Cc1cc(/C=C/C#N)cc(C)c1Oc1nc(NC2CCN(Cc3ccc(S(C)(=O)=O)cc3)CC2)nc2ccccc12, the selectivity index was 1470 (HIV-1; TZM-bl, NL4-3 wild type; reference: CC50 over EC50).
The viability of N#Cc1ccc(-c2ccc(-c3cccs3)o2)nc1 is reported as 127 ± 5.4% (Salmonella typhimurium; liquid broth OD; TA1535; 50 µM, 15 h; reference: growth).
[64Cu+2].c1cnc(CNCc2ccc(CN3CCCN4CCNCCCN(CC4)CC3)cc2)nc1 gave a tissue uptake of 5.67 ± 0.3 %ID/g (CXCR4 (human); NOD/SCID mice, U87 xenografts, U87 control tumour; 60 min post-injection).
The viability of N#Cc1ccc(-c2ccc(-c3cccs3)s2)cc1 is reported as 110 ± 5.6% (Salmonella typhimurium; liquid broth OD; TA1535; 25 µM, 15 h; reference: growth).
C=CCC1=C[C@]2(C[C@@H](O)C(C)(C)O2)C2=C(C[C@H]3C[C@@H]4[C@@H](C[C@@]3(C)O2)C(=C)CCCC4(C)C)C1=O has a selectivity index of 2.1 (coxsackievirus B3; cytopathic effect; Vero, Nancy; reference: CC50 over IC50).
For Cn1c(=O)oc2ccc(-c3ccc(CC(C#N)NC(=O)C4CNCCCO4)c(F)c3)cc21 (stereo not drawn), the half-life was 21 h (human, plasma; 40 mg, single dose, fasted, mean).
The selectivity index of COC(=O)c1ccc(CN2CCC(Nc3nc(Oc4c(C)cc(C#N)cc4C)c4ccccc4n3)CC2)cc1 is reported as > 8.45 (HIV-1; TZM-bl, NL4-3 wild type; reference: CC50 over EC50).
CC(C)CCC[C@@H](C)[C@H]1CCC([C@@H]2CC[C@H]3C[C@@H](O)CC[C@]3(C)[C@H]2O)[C@]1(C)CC(=O)O (stereo partly drawn) has a viability of > 100% (HEK293T; CellTiter-Blue; 10 µM).
With Cc1cc(C#N)cc(C)c1Oc1nc(NC2CCN(Cc3cccc(C(N)=O)c3)CC2)nc2ccccc12 the selectivity index was > 28.9 (HIV-1; TZM-bl, NL4-3 wild type; reference: CC50 over EC50).
C=CCC1=C[C@@]2(C[C@@H](O)C(C)(C)O2)C2=C(C[C@H]3C[C@@H]4C(=C)CCCC(C)(C)[C@H]4C[C@@]3(C)O2)C1=O has a selectivity index of 3 (coxsackievirus B3; cytopathic effect; Vero, Nancy; reference: CC50 over IC50).
N=C(N)c1ccc(-c2ccc(-c3ccco3)o2)nc1 gave a viability of 124 ± 7.7% (Salmonella typhimurium; liquid broth OD; TA1535; 12.5 µM, 15 h; reference: growth).
N#Cc1cc(C(=O)OCC[18F])c(C(F)(F)F)nc1N1CCC(C(=O)NS(=O)(=O)c2ccc(Cl)s2)CC1 gave a permeability of 17.2% (bEnd.3 monolayer transwell; concentration not given, together with: verapamil 1.0 µg).
With O=C(O)CCC(NP(=O)(O)OCCC[C@@H](NC(=O)CC[C@H](NC(=O)CCCCCNC(=O)c1ccc([18F])cc1)C(=O)O)C(=O)O)C(=O)O (stereo partly drawn) the tracer uptake was 0.311 %ID/g (CWR22Rv1 tumour model; host not given, heart; 1 h, tumour-bearing).
With Cc1cc(C#N)cc(C)c1Oc1nc(NC2CCN(Cc3cccc(Br)c3)CC2)nc2ccccc12 the selectivity index was > 6.06 (HIV-1; TZM-bl, NL4-3 wild type; reference: CC50 over EC50).
With N=C(N)c1ccc(-c2ccc(-c3cccs3)s2)cc1 the viability was 80.4 ± 3.1% (Salmonella typhimurium; liquid broth OD; TA1535; 25 µM, 15 h; reference: growth).
[64Cu+2].c1ccc(CNCc2ccc(CN3CCCN4CCNCCCN(CC4)CC3)cc2)nc1 gave a tissue uptake of 21.1 ± 5.34 %ID/g (CXCR4; NOD/SCID mouse, U87 and U87-stb-CXCR4 xenografts, spleen; iv, 30 min, ex vivo).
With Cc1cc(/C=C/C#N)cc(C)c1Oc1nc(NC2CCN(Cc3ccc(S(N)(=O)=O)cc3)CC2)nc2ccccc12 the selectivity index was 2560 (HIV-1; TZM-bl, NL4-3 wild type; reference: CC50 over EC50).
N#Cc1ccc(-c2ccc(-c3cccs3)o2)cc1 gave a viability of 101 ± 6.3% (Salmonella typhimurium; liquid broth OD; TA1535; 12.5 µM, 15 h; reference: growth).
Cc1cc(C#N)cc(C)c1Oc1nc(NC2CCN(Cc3ccc(S(N)(=O)=O)cc3)CC2)nc2ncccc12 gave a selectivity index of 25800 (HIV-1; TZM-bl, NL4-3 wild type; reference: CC50 over EC50).
For O=C(O[C@@H]1Cc2c(O)cc(O)cc2O[C@@H]1c1cc(O)c(O)c(O)c1)c1cc(O)c(O)c(O)c1, the remaining fluorescence was 33.4% (Albumin (ALB, Bos taurus, UniProt P02769); binding, fluorescence quenching; 25 µM, 1 h, pH 5.0, together with: BSA 3 µM; reference: untreated).
Cc1cc(C#N)cc(C)c1Oc1nc(NC2CCN(Cc3ccc(C#N)cc3)CC2)nc2ccccc12 has a selectivity index of > 22.5 (HIV-1; TZM-bl, NL4-3 wild type; reference: CC50 over EC50).
The cytokine level of CC(=O)N[C@H](C(=O)N[C@H](C(=O)N[C@@H](CCCNC(=N)N)C(=O)N1Cc2ccccc2C[C@H]1C(=O)N[C@@H](Cc1ccccc1)C(N)=O)C1CCCCC1)C(C)C is reported as 201 ± 110 pg/mL (human PBMC; Bio-Plex multiplex, item: IL-1ra; 250 µg/mL, 24 h).

Excerpt of the above:
With COc1cc2nc(NC3CCN(Cc4ccc(S(C)(=O)=O)cc4)CC3)nc(Oc3c(C)cc(C#N)cc3C)c2cc1OC the selectivity index was 1150 (HIV-1; TZM-bl, NL4-3 wild type; reference: CC50 over EC50).
N#Cc1ccc(-c2ccc(-c3cccs3)o2)cc1 gave a viability of 101 ± 6.3% (Salmonella typhimurium; liquid broth OD; TA1535; 12.5 µM, 15 h; reference: growth).
With N=C(N)c1ccc(-c2ccc(-c3cccs3)s2)cc1 the viability was 80.4 ± 3.1% (Salmonella typhimurium; liquid broth OD; TA1535; 25 µM, 15 h; reference: growth).
